Earlier results that unrelated publications cite.
Compare with care: the assays were run in different laboratories.
UniProt Q16584, sequence (whole entry, looked up): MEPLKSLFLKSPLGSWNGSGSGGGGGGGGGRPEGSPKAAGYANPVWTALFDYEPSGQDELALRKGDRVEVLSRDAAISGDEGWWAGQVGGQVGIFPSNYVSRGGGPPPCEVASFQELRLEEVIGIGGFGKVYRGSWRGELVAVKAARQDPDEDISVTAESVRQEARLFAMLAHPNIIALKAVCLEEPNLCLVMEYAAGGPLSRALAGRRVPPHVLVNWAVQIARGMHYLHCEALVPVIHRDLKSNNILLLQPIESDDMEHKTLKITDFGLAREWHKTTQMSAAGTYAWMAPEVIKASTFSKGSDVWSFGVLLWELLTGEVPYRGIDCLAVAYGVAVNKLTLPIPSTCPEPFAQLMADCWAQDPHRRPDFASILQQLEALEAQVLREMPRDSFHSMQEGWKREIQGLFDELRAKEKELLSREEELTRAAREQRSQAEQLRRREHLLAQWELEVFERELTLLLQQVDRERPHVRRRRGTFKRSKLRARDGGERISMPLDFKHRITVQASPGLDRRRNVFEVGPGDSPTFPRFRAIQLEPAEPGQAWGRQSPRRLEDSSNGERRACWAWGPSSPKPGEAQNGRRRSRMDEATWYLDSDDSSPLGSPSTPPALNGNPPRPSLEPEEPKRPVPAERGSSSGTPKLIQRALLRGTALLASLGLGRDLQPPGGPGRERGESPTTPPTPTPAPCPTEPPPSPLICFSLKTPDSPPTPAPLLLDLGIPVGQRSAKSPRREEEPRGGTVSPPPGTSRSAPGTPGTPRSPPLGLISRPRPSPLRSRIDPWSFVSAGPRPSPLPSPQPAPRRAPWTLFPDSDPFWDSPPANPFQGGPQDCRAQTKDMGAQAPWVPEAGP

SMILES	tested on	assay	test system	setting	how to read	quantity	value
CC(C)(c1ccc(O)cc1)c1ccc(O)cc1						log Kow	3.32
O=C(O)CN1CCNCCN(CC(=O)O)CCNCC1			0.1 M KCl			log KH1	11.7
CC(C)(Oc1ccc(CCNC(=O)c2ccc(Cl)cc2)cc1)C(=O)O						log Kow	4.07
C[Si](C)(C)O[Si](C)(C)O[Si](C)(C)C		HPLC retention correlation	1-octanol/water	25 °C		log KOW	4.8
Cn1c(=O)c2c(ncn2C)n(C)c1=O		IAM chromatography				log kW IAM	0.31
C[Si]1(C)O[Si](C)(C)O[Si](C)(C)O[Si](C)(C)O[Si](C)(C)O1			1-octanol/water	25 °C		log KOW	8.07
c1ccc2c(c1)ccc1c3ccccc3ccc21				experimental mean or OPERA estimate		log Kow	5.81
Nc1cc(C(F)(F)F)c(-c2nc(N3CCOCC3)nc(N3CCOCC3)n2)cn1	MAP3K11 (Homo sapiens, UniProt Q16584)	enzyme activity		10 µM	baseline: untreated	remaining activity	100%
C[C@]12CCC(=O)C=C1CC[C@@H]1[C@@H]2[C@@H](O)C[C@@]2(C)[C@H]1CC[C@]2(O)C(=O)CO						log KOA	> 5
C[Si](C)(C)O[Si](C)(C)C			dry 1-octanol/air	25 °C		log KOA	2.98
c1ccc2c(c1)ccc1ccccc12				experimental mean		log Kow	4.46
CC(C)NCC(O)COc1ccc(CC(N)=O)cc1 (stereo not shown)						log Kow	0.16
C[Si](C)(C)O[Si](C)(C)O[Si](C)(C)O[Si](C)(C)C				28 °C		log KAW	2.84
C[Si](C)(C)O[Si](C)(C)O[Si](C)(C)O[Si](C)(C)C						log Kow	8.14
O=C(O)CN(CC(=O)O)[C@H]1CCCC[C@@H]1N(CC(=O)O)Cc1ccccn1						log K HL protonation constant	10.2
CC(O)C(C)n1ncn(-c2ccc(N3CCN(c4ccc(OCC5COC(Cn6cncn6)(c6ccc(Cl)cc6Cl)O5)cc4)CC3)cc2)c1=O (stereo not shown)						log P (octanol/water)	4.47

For quick reference, copied from above:
SMILES	tested on	assay	test system	setting	how to read	quantity	value
CC(C)(Oc1ccc(CCNC(=O)c2ccc(Cl)cc2)cc1)C(=O)O						log Kow	4.07
C[Si](C)(C)O[Si](C)(C)O[Si](C)(C)C		HPLC retention correlation	1-octanol/water	25 °C		log KOW	4.8
